Experimental data pooled from the literature.
A part holds a random share of what one study measured. Substitutions count along the parent as printed.

Sample 1
Target: RING finger protein unkempt homolog, zinc fingers 1-6, GST-SBP tag (UNK, Homo sapiens, UniProt Q9C0B0, residues 30-357)
Method: RNA Bind-n-Seq
Form: RNA
Sample: in vitro
Concentration: not given
Setting: RNA with constant flanks, human-mouse chimeric sites, ends assumed
Reference: input RNA pool
Direction: higher = stronger binding
All sequences stand within: GGGAGUUCUACAGUCCGACGAUC … CAACAGAGGAUUGAGCAUCA
Target sequence (chain): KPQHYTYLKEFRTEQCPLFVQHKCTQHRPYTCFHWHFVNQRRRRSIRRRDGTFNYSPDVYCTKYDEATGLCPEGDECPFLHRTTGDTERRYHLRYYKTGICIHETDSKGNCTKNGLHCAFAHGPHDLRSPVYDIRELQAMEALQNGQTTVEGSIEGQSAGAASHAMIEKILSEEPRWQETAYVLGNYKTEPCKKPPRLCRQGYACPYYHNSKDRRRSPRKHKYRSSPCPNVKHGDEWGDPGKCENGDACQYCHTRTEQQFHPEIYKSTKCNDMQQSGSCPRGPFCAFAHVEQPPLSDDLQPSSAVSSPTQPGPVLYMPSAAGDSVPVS
| Sequence | bound/input enrichment |
| --- | --- |
| CCAAUUGUGGAGCAGUACUUGAAGACAAAGAAAAAUUCUAAUAAUUUAAUCAUGAAAUACAUUAGCUGCCGCCUGCUGACACUCAUCGUUAUACUGUUAGCGUGUAUCUACCUGGGCUAU | 0.726 ratio |
| CACACCCUCUUCUGCGGGACCCUCAUCUUGCAGGCCCGGGCCUAUGUGGGACCCCGUGUCCUGGCAGUGGUGACCCGCACAGGGUUCUGCACGGCAAAAGGGGGCCUGGUGAGCUCCAUC | 0.0888 ratio |
| CUGGCCUGGCCCUCCCCAGGGGCCUCCUUCUCUGCAUUCACUGCUUCUGCAUCAGAUACUUUCAGCUGCAACUCCCUACUGGGUGGGGCACCUAUCUCAGGCAGAAGGUUUUGGUACCCU | 0.171 ratio |
| GCUCCUCCCCGCUCUGCAGCCUGGGGACACUGGGCUGCAUUUUUUUUCCAGCUUUCUUUUAAAACUCUCAGUGUAACUGUAUCCCGUGACAUUUCAUUUUUUUUAAAUAGUGUAUUUUUU | 5.84 ratio |
| UUACUUUUGACUCCCUGGGUCAAGUUCCUGUGGGAAUCUUACAGGCAGUGUUUGGACCUUCUUCGAAACAAUUCUAGAGUAGAGCGCCUUUACCAUGAUAUCGCCCAACAAGCUUUCAAA | 0.19 ratio |
| UGGCGCCUGCGCUCCCCGUUUUUAAAUUUAAGUGUAUUUUUAUAAGAUACAUGUAUUUACAAUUGAGCUUUUGUUACAUAAUGCUGAAAUGCUACUGCAAUAUUAUGAAAAUGUUUCAAU | 0.286 ratio |
| CAGCGCCGAGGCCGCGGUUUCCCCCUGGGCCUCCCCAGCCGCCGCCAUGGGCAUCAAAUUUUUAGAAGUUAUCAAACCAUUCUGUGCAGUUCUACCAGAAAUUCAGAAACCGGAAAGGAA | 1.36 ratio |
| UUAAUCCCCUUUACUGCUCCCCCACUUGUCAUGCUGAUAACAAAGUCUUAUAUCCCCGUCCUAGCUUUCACUCAGAUGGCUUAUGGAGCCGGUUUCCUAUCUUUCUUGGGAGGGAUCAGA | 0.173 ratio |

Sample 2
Target: RNA binding protein fox-1 homolog 2, RRM domain, GST-SBP tag (RBFOX2, Homo sapiens, UniProt O43251-10, residues 100-194)
Method: RNA Bind-n-Seq
Form: RNA
Sample: in vitro
Concentration: 365 nM
Setting: natural RNA segment, single round, ends assumed
Reference: no-protein control
Direction: higher = stronger binding
All sequences stand within: GGGAGUUCUACAGUCCGACGAUC … UGGAAUUCUCGGGUGCCAA
Construct (chain): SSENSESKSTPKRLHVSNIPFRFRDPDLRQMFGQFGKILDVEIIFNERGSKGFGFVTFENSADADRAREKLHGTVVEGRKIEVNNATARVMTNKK
| Sequence | RBNS enrichment (R) |
| --- | --- |
| UGUCCAGCCUUGUGUUUUCUGUAACCCCUGUUUGUGGUACGAGAUAAUGAGUCCUAUUUUUCUCUCACAUAAUAUGCAUUUGCUCUCCUAGGACAGUGUAAUACAUUUAU | 0.391 |
| AAGGCUCAAACAGAUGAUGUUUUUUCCACAGAAAAACAAAUUGUUGAAUCUAUUCCGUGCAUAUUUAAGGAUUUUGAAUUGAUUUUGAAAAUCAUGAAACUUGAACUAUU | 0.454 |
| GUGGUUCACAUUCCUAGUGAGAAGCAGAGAUCUGGAGGUGUGCAGUCCUCAGCCUCACAGCUUCCUUCCCUUUUCAGCAGGCUGAUGGAGACAUGCCACCAACAUAGACA | 0.375 |
| UAAGAGAGCAUUGGUUUGUUAAAGAGCUUUCAAUGUAUAUUAAAACCUUCAAUACUCAGAAAUGAUGGAUUCCUCCAAGGAGUCCUUUACUAGCCUAAACAUUCUCAAAU | 0.482 |
| UGCUUUCAAUACACGAUUAGUAAUCAACUGUUUUGUAUACUUGUUUUCAGUUUUCAUUUCGACAAACAAGCACUGUAAUUAUAGCUAUUAGAAUAAAAUCUCUUAACUAU | 0.347 |
| UACCAGUCAGAGGUCAGGACUCCAUGAGUCCAGCUGCCACAAAGGGUUCAGCUUGGAGGUGACACCUCUUUGGUCUACAUUUGUACAAUGGAUGCAUCAAGUUUCUAAAU | 0.258 |
| UUUGAAAACAGCUAGCUCUGCAUUUUCAUACUAGUGUAGAGUUUGUUAUGAAAUAUUUUUACUAUGACUCCUUCAACAACUAAAUACGAACUGCCUGUUCUCUAAACCUC | 0.693 |
| CCGCUCCCUUCUCCCCACCCAAACCCCACACUGCAGCAGGCAGGCCAGGGCGGGUGUGGGGCUGGCUGAGAGGAUCAAUUUUAGAGUCUUUAUUCAGGGAGUGAGACAUG | 0.321 |
| UAUUUCUUUUGGUAUCUUUCUUCCUGUACAUUGGAGUGAUGGAAAGUCUGGUAUUAAAACCUCUCUUACUUUUAAACUUGAUUUUGCAGACUCUGGCAAUAAGCCUUCCA | 0.605 |
| UCUUUCACUUGUAUGUACAGAGAGGUUUUUCUGAAUAUUUAUUUUAAGGGUUAAAUCACUUUUGCUUGUGUUUAUUACUGCUUGAGGUUGAGCCUUUUGAGUAUUUAAAA | 0.698 |
| AGGUAAGUUAAGUAAGUUGAUUCGGUAUCCCCCCAUCUUGCUUCCCUAAUCUAUGGUCGGGAGACAGCAUCAGGGUUAAGAAGACUUUUUUUUUUUUUUUUUAAACUAGG | 0.589 |
| CUAUUUAAAGACGCAAUCCCAGGUUCCUUGCACACCAUGGCAGCCUCUCCUUGCACCUUCUCCUGCCUCUCCACACUCCAGGUUCCCUCAGGCUUGUGUCCCCACUGCUG | 0.706 |

Sample 3
Target: CCNB2, cyclin fold, Cln2 fusion (human)
Method: yeast growth competition, sequencing
Sample: yeast
Setting: weak parent motif
Reference: not given
Direction: higher = stronger binding
Starting sequence: GMNC docking peptide (human); KNAKRNLSSEFAN
| Substitution | normalised enrichment score |
| --- | --- |
| R5E | 0.313 |
| K4M | -0.195 |
| E10W | 0.716 |
| S9D | 0.167 |
| L7S | 0.123 |
| R5M | 0.0198 |
| R5F | -0.083 |
| N6L | -0.159 |
| N6V | 0.17 |
| A3L | 1.4 |
| K4V | 0.415 |
| F11G | 0.566 |
| R5G | 0.699 |
| N2I | 0.904 |
| S9F | 0.302 |

Other studies, line by line
| Substance | target | assay | system | conditions | scale | quantity | value |
| --- | --- | --- | --- | --- | --- | --- | --- |
| PhoQ, residues 284 288 289 292 302 303 WVSSAF | PhoP, residues 12 14 15 18 19 NHFIF (Escherichia coli, UniProt P23836) | Sort-seq, refers to: YFP reporter | E. coli | PhoQ-PhoP variant library, added: 10 µM Mg2+ | reference: high Mg2+ state, higher = stronger signaling | fold induction | 3.03 |

Excerpt of the above (sample 1):
| Sequence | bound/input enrichment |
| --- | --- |
| CACACCCUCUUCUGCGGGACCCUCAUCUUGCAGGCCCGGGCCUAUGUGGGACCCCGUGUCCUGGCAGUGGUGACCCGCACAGGGUUCUGCACGGCAAAAGGGGGCCUGGUGAGCUCCAUC | 0.0888 ratio |
| UGGCGCCUGCGCUCCCCGUUUUUAAAUUUAAGUGUAUUUUUAUAAGAUACAUGUAUUUACAAUUGAGCUUUUGUUACAUAAUGCUGAAAUGCUACUGCAAUAUUAUGAAAAUGUUUCAAU | 0.286 ratio |
| UUAAUCCCCUUUACUGCUCCCCCACUUGUCAUGCUGAUAACAAAGUCUUAUAUCCCCGUCCUAGCUUUCACUCAGAUGGCUUAUGGAGCCGGUUUCCUAUCUUUCUUGGGAGGGAUCAGA | 0.173 ratio |
| UUACUUUUGACUCCCUGGGUCAAGUUCCUGUGGGAAUCUUACAGGCAGUGUUUGGACCUUCUUCGAAACAAUUCUAGAGUAGAGCGCCUUUACCAUGAUAUCGCCCAACAAGCUUUCAAA | 0.19 ratio |
